Results of several laboratories.
Each numbered part is a random draw from the data of one study; scales do not carry over between parts.
Sequence of UniProt Q13237 (whole entry, looked up): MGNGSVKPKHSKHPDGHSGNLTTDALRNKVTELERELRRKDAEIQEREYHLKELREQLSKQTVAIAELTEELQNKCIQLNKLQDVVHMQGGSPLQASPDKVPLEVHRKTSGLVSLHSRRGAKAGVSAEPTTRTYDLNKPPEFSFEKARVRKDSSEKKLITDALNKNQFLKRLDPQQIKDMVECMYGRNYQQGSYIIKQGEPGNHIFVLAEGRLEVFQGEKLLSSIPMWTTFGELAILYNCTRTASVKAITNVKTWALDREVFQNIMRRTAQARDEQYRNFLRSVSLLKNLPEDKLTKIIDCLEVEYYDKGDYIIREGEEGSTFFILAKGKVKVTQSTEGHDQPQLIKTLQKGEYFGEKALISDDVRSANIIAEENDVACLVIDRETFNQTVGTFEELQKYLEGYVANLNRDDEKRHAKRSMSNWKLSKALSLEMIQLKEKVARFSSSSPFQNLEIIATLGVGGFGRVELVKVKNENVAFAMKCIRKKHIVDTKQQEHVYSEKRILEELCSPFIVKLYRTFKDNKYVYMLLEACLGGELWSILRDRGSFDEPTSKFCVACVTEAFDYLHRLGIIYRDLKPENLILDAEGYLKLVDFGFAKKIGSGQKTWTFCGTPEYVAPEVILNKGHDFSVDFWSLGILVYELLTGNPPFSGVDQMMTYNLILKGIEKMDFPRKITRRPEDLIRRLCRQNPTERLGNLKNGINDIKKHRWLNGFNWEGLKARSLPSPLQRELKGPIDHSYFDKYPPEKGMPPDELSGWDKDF
Sequence of UniProt Q9H4B4 (whole entry, looked up): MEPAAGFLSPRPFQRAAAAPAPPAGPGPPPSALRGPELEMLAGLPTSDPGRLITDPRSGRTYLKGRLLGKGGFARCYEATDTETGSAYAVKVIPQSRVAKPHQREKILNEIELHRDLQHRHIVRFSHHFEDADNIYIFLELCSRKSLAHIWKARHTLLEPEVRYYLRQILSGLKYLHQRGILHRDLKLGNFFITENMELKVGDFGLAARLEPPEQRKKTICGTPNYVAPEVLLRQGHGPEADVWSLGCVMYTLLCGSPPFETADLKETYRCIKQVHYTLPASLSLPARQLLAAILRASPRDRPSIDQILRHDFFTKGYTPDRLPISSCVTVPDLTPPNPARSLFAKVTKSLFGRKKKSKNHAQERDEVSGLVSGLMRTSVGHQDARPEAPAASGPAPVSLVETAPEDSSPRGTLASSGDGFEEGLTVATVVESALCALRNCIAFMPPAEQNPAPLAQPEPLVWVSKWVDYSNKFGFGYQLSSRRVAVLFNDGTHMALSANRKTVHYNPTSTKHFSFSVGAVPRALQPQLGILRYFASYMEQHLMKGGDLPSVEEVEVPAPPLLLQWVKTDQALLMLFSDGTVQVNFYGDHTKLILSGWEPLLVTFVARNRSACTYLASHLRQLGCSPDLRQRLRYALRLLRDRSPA
Sequence of UniProt Q7KZI7 (whole entry, looked up): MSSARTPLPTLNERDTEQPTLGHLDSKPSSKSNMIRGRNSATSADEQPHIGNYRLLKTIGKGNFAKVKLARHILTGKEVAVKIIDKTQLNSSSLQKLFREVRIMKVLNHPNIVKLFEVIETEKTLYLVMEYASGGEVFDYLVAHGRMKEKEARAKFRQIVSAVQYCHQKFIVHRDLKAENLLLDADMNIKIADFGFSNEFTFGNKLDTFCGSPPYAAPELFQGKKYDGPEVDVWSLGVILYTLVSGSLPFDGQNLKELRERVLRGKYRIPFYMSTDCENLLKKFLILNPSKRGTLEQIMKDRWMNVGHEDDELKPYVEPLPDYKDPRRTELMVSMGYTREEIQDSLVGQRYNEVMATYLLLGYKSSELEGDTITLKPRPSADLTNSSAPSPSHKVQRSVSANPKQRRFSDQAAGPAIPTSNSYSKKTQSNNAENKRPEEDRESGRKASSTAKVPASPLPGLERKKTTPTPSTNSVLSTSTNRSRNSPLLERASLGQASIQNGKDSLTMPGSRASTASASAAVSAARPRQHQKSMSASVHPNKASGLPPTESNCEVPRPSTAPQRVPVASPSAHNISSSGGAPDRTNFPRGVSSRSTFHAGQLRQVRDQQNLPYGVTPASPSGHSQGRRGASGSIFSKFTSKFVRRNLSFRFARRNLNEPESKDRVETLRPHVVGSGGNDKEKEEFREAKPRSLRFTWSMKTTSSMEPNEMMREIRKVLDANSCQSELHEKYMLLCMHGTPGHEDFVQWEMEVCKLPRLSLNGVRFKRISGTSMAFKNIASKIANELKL
Sequence of UniProt Q05655 (whole entry, looked up): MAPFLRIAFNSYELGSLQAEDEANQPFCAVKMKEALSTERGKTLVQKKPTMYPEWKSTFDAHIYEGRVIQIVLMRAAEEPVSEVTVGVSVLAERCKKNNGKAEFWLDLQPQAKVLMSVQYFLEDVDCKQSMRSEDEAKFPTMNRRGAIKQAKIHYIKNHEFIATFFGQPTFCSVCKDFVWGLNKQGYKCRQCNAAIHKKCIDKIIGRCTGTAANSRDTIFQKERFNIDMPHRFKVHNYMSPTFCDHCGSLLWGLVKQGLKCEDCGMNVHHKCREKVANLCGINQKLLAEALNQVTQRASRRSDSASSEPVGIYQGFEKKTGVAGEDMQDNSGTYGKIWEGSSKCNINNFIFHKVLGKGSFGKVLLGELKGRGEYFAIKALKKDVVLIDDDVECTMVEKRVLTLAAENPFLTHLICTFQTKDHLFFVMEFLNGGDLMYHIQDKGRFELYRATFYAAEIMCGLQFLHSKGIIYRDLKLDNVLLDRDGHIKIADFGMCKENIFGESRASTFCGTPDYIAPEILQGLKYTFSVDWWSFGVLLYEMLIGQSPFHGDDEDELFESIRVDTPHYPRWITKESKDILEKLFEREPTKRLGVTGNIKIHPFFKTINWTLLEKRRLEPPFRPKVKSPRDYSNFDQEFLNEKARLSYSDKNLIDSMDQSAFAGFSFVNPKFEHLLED
Sequence of UniProt Q9Y2I7 (whole entry, looked up): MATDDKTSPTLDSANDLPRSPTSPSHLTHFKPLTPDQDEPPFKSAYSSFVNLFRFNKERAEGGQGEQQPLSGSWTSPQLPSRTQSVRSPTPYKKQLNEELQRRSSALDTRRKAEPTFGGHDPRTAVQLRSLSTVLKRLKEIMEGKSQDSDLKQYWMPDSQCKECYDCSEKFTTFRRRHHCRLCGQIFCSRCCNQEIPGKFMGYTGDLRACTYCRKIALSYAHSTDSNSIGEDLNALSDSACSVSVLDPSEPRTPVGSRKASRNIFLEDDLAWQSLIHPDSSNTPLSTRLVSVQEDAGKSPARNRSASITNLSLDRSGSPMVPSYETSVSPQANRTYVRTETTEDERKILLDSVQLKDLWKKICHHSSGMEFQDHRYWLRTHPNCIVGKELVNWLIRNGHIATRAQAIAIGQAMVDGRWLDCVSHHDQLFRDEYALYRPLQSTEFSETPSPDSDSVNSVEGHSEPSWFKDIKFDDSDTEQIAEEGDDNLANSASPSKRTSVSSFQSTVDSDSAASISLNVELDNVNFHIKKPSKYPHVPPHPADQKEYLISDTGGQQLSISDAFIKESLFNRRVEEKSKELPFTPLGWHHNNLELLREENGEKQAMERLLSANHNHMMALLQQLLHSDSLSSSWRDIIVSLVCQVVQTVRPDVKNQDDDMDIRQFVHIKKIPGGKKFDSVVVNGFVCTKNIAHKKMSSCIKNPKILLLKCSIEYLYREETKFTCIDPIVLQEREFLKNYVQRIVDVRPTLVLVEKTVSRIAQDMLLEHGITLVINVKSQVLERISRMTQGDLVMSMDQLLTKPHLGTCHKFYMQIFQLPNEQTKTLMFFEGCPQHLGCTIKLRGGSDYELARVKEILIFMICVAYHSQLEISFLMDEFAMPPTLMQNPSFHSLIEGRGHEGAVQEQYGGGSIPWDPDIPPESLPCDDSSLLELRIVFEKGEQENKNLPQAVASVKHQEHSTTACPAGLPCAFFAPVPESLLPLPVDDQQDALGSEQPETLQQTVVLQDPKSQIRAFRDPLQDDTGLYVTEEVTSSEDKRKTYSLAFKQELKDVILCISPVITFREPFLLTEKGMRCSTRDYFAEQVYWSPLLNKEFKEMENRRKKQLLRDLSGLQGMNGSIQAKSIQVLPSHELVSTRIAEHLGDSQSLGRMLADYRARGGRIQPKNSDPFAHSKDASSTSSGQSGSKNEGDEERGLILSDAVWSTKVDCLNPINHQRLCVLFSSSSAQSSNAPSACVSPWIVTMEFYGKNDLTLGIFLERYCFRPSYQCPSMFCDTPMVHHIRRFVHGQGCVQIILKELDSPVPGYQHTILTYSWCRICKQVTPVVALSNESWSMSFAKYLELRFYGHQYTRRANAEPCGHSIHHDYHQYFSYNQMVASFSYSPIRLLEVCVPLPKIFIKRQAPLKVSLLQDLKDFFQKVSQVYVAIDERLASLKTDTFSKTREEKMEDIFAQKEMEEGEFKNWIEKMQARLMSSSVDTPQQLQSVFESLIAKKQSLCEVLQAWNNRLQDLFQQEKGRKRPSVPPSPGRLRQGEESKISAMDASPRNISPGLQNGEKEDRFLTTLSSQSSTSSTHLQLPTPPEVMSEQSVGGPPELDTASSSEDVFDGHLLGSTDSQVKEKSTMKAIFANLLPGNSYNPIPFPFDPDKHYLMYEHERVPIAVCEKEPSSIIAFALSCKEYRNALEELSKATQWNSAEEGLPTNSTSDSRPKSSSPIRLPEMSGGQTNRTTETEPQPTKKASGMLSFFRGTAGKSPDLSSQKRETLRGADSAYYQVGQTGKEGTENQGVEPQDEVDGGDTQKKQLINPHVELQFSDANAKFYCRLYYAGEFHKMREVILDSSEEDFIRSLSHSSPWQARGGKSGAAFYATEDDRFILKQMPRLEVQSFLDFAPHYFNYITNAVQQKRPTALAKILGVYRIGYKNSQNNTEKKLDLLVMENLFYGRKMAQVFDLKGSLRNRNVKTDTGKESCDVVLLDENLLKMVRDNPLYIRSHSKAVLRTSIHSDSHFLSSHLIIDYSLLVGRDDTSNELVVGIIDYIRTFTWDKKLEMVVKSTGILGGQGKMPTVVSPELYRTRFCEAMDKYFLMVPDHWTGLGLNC

Set 1 — observed: enzyme activity; mode: inhibitor; concentration: 0.5 µM; baseline: control
SMILES: COc1cc(Nc2c(C#N)cnc3cc(OCCCN4CCN(C)CC4)c(OC)cc23)c(Cl)cc1Cl
| target | remaining activity [%] |
| --- | --- |
| NEK3 (Homo sapiens, UniProt P51956) | 85.9 |
| MARK2 (Homo sapiens, UniProt Q7KZI7) | 99.9 |
| AKT2 (Homo sapiens, UniProt P31751) | 104 |
| PLK3 (Homo sapiens, UniProt Q9H4B4) | 98.5 |
| RPS6KA4 (Homo sapiens, UniProt O75676) | 101 |
| MAPK11 (Homo sapiens, UniProt Q15759) | 101 |
| TXK (Homo sapiens, UniProt P42681) | 27.5 |
| DCLK2 (Homo sapiens, UniProt Q8N568) | 98.4 |
| MAP2K1 (Homo sapiens, UniProt Q02750) | 65.3 |
| Myosin-IIIb (MYO3B, Homo sapiens, UniProt Q8WXR4) | 40.3 |
| PRKG2 (Homo sapiens, UniProt Q13237) | 109 |

Set 2 — cell line: A-375; concentration: 100 µM; time: 36 h
| Structure (SMILES) | viability [%] |
| --- | --- |
| CC(=O)Oc1cc(C)c(OC(C)=O)c2ccccc12 | 4.04 |
| CC(C(=O)O)c1ccc(-c2ccccc2)c(F)c1 (stereo not shown) | 117 |
| O=C1c2c(O)cccc2Cc2cccc(O)c21 | 92.6 |
| COc1ncnc(NS(=O)(=O)c2ccc(N)cc2)c1OC | 109 |
| CC(=O)Nc1ncc([N+](=O)[O-])s1 | 99.9 |
| NC(=O)OCC(COC(N)=O)c1ccccc1 | 116 |
| CN1C[C@@H]2c3ccccc3Oc3ccc(Cl)cc3[C@H]2C1 (racemic) | -0.838 |

Set 3 — observed: acetyl-histone H4 peptide binding; technique: AlphaScreen displacement; concentration: 50 µM
Target: Bromodomain-containing protein 4, BD1 (BRD4, Homo sapiens, UniProt O60885)
| Structure (SMILES) | inhibition [%] |
| --- | --- |
| Cc1nc(N)sc1-c1csc(Nc2ccc(N)cc2)n1 | 93.3 |
| CCOc1c(Br)ccc2c1sc1nc[nH]c(=O)c12 | 8.35 |
| COc1cc(OC)c(C=C2C(=O)Nc3ccccc32)c(OC)c1 | 61.6 |
| N#CC(=Cc1cccnc1)c1nc2ccccc2s1 | 25.4 |
| COc1ccccc1OCC(=O)NNC(=O)c1ccc(Cl)cc1 | 3.9 |
| O=C(CSc1nnc(-c2ccccc2O)n1-c1ccccc1)Nc1nccs1 | 5.05 |

Set 4 — observed: cell-free assay; technique: competition with immobilised ligand; concentration: 1 µM
Structure (SMILES): O=C1CCc2cc(Nc3cc(OC4CCOCC4)c([N+](=O)[O-])cc3Cl)ccc2N1
| target | remaining binding |
| --- | --- |
| PRKG1 (Homo sapiens, UniProt Q13976) | 89% |
| SRMS (Homo sapiens, UniProt Q9H3Y6) | 82% |
| CLK4 (Homo sapiens, UniProt Q9HAZ1) | 88% |
| TNK1 (Homo sapiens, UniProt Q13470) | 87% |
| KIT (Homo sapiens, UniProt P10721, A829P) | 100% |
| PIKFYVE (Homo sapiens, UniProt Q9Y2I7) | 83% |
| PRKCD (Homo sapiens, UniProt Q05655) | 100% |

Some of these lines once more (set 1):
| target | remaining activity [%] |
| --- | --- |
| PLK3 (Homo sapiens, UniProt Q9H4B4) | 98.5 |
| RPS6KA4 (Homo sapiens, UniProt O75676) | 101 |
| MAPK11 (Homo sapiens, UniProt Q15759) | 101 |
| TXK (Homo sapiens, UniProt P42681) | 27.5 |
| DCLK2 (Homo sapiens, UniProt Q8N568) | 98.4 |
